Measurements collected from several papers.
Protocols differ between the studies behind these lines. ± marks the error that the study gave.

Structure (SMILES) | test | system | setting | AUC(0-inf)
CCCC[C@H](NC(C)=O)C(=O)N[C@H]1CCC(=O)NC[C@@H](C(=O)N[C@@H](Cc2c[nH]c3ccccc23)C(N)=O)NC(=O)[C@H](CCCNC(=N)N)NC(=O)[C@@H](Cc2ccccc2)NC(=O)[C@H](Cc2c[nH]cn2)NC1=O |  | healthy human volunteers, plasma | subcutaneous, 1.0 mg once daily, day 1 | 52.3 ng·h/mL
CC(=O)Nc1ccc(O)cc1 |  | healthy human volunteers | oral, 650 mg, day 1, without favipiravir | 33300 ng·h/mL
C#C[C@]1(O)CC[C@H]2[C@@H]3CCC4=CC(=O)CC[C@@H]4[C@H]3CC[C@@]21C |  | human female, plasma | oral, 1 mg, day 1, with: ethinyl estradiol 35 µg | 40.9 ng·h/mL
CC(C)C[C@H](NC(=O)[C@H](CCc1ccccc1)NC(=O)CN1CCOCC1)C(=O)N[C@@H](Cc1ccccc1)C(=O)N[C@@H](CC(C)C)C(=O)[C@@]1(C)CO1 |  | human patients, plasma | intravenous infusion 10 min, 27 mg/m^2, day 16 of cycle 1, KRd regimen | 445 ± 55.7 ng·h/mL
CC(C)NC[C@@H](C(=O)N1CCN(c2ncnc3c2[C@H](C)C[C@H]3O)CC1)c1ccc(Cl)cc1 |  | human, severe hepatic impairment (Child-Pugh), plasma | oral, 100 mg single dose, geometric mean | 920 ng·h/mL
NS(=O)(=O)OC[C@@H]1C[C@@H](n2ccc3c(N[C@H]4CCc5ccccc54)ncnc32)C[C@@H]1O |  | human | intravenous, 8 mg/m^2 single dose, day 8, with: itraconazole | 585 ng·h/mL
C=CC(=O)N1CCC([C@@H]2CCNc3c(C(N)=O)c(-c4ccc(Oc5ccccc5)cc4)nn32)CC1 |  | human | oral, 480 mg, single dose, mean | 3060 ng·h/mL
N[C@@H](Cc1ccc(O)c(O)c1)C(=O)O |  | human, plasma | oral, 150 mg single, geometric LS mean, with: 37.5 mg carbidopa | 3870 ng·h/mL
CCCS(=O)(=O)N[C@H]1C[C@@H](N(C)c2ncnc3[nH]ccc23)C1 |  | humans, normal hepatic function | oral, 200 mg single | 5590 ng·h/mL
Cl.NCCc1c[nH]c(=S)n1[C@H]1COc2c(F)cc(F)cc2C1 | mean | human, male, plasma | oral, 200 mg, fed, high-fat high-calorie meal | 2120 ng·h/mL
CCCc1nn(C)c2c(=O)[nH]c(-c3cc(S(=O)(=O)N4CCN(C)CC4)ccc3OCC)nc12 |  | human, male, plasma | oral, 50 mg, day 8, with: sacubitril/valsartan 400 mg daily | 629 ± 303 ng·h/mL
CN(Cc1nc2c(N)nc(N)nc2[nH]c1=O)c1ccc(C(=O)N[C@@H](CCC(=O)O)C(=O)O)cc1 |  | human, plasma | oral, 15 mg methotrexate, day 1, alone, arithmetic mean | 1470 ng·h/mL
CCOCCn1c(C2CCN(CCc3ccc(C(C)(C)C(=O)O)cc3)CC2)nc2ccccc21 |  | healthy human subjects, plasma | oral, 20 mg, geometric LS mean | 703 ng·h/mL
CC(C)[C@@H](CS(=O)(=O)C(C)C)N1C(=O)[C@@](C)(CC(=O)O)C[C@H](c2cccc(Cl)c2)[C@H]1c1ccc(Cl)cc1 |  | human, plasma | oral, 60 mg, new tablet, fasted, arithmetic mean | 3430 ng·h/mL
CCN1CCN(Cc2ccc(Nc3ncc(F)c(-c4cc(F)c5nc(C)n(C(C)C)c5c4)n3)nc2)CC1 | population PK model | healthy human subjects, plasma | oral, 200 mg single dose | 3890 ng·h/mL
C[C@H]1O[C@@H](O[C@H]2[C@@H](O)C[C@H](O[C@H]3[C@@H](O)C[C@H](O[C@H]4CC[C@@]5(C)[C@H](CC[C@@H]6[C@@H]5C[C@@H](O)[C@]5(C)[C@@H](C7=CC(=O)OC7)CC[C@]65O)C4)O[C@@H]3C)O[C@@H]2C)C[C@H](O)[C@@H]1O |  | human | oral, 0.5 mg single dose, day 19, with: isavuconazole 200 mg once daily | 42.1 ng·h/mL
COC(=O)c1ccc2c(c1)NC(=O)/C2=C(\Nc1ccc(N(C)C(=O)CN2CCN(C)CC2)cc1)c1ccccc1 |  | human, hepatic impairment Child-Pugh B, plasma | oral, 100 mg single dose, fed, adjusted geometric mean | 674 ng·h/mL
Cc1ccc(NC(=O)c2ccc(CN3CCN(C)CC3)cc2)cc1Nc1nccc(-c2cncc(-c3oncc3C)c2)n1 |  | older healthy human adults, plasma | oral, 25.0 mg single dose, fed, mean | 23400 ng·h/mL
C=CC(=O)Nc1cc(Nc2ncc(C(=O)OC(C)C)c(-c3cn(C)c4ccccc34)n2)c(OC)cc1N(C)CCN(C)C |  | human, fasted | oral, 160 mg single dose, arithmetic mean | 1110 ng·h/mL
O=C(/C=C/c1cccc(S(=O)(=O)Nc2ccccc2)c1)NO |  | human, normal liver function, plasma | intravenous, 400 mg/m^2, 30 min infusion, single dose, mean | 12000 ng·h/mL
COc1cc2ncnc(Nc3ccc(F)c(Cl)c3)c2cc1OCCCN1CCOCC1 |  | human, plasma | oral, 250 mg, with: vorinostat 300 mg | 7.33 ± 1.81 ng·h/mL
O=c1[nH]c(=O)c(Cc2cccc(C(F)(F)F)c2)c([C@H]2CC[C@H](c3ccccc3)CC2)[nH]1 |  | human, fasted, plasma | oral, 100 mg single dose, geometric mean | 1190 ng·h/mL

Structure (SMILES) | test | system | setting | AUC(0-inf)
CN(Cc1cnc2nc(N)nc(N)c2n1)c1ccc(C(=O)N[C@@H](CCC(=O)O)C(=O)O)cc1 |  | human, plasma | oral, 15 mg, alone, mean | 1600 ng·h/mL
C=C(C)[C@@H]1CC[C@]2(NCCN3CCS(=O)(=O)CC3)CC[C@]3(C)[C@H](CC[C@@H]4[C@@]5(C)CC=C(C6=CC[C@@](CF)(C(=O)O)CC6)C(C)(C)[C@@H]5CC[C@]43C)[C@@H]12 |  | healthy human volunteers, plasma | oral, 200 mg, tablet, fasted state, geometric mean | 13500 ng·h/mL
CCc1nc(C(N)=O)c(Nc2ccc(N3CCC(N4CCN(C)CC4)CC3)c(OC)c2)nc1NC1CCOCC1 |  | healthy humans, after high-fat breakfast, plasma | oral, 40 mg, single dose | 1900 ng·h/mL
CN(C)Cc1c(C(=O)NCCOc2ccc(C(=O)NO)cc2)oc2ccccc12 |  | human, plasma | oral, 80 mg single dose | 309 ± 76.3 ng·h/mL
CC(=O)O[C@H]1C(=O)[C@@]2(C)[C@H]([C@H](OC(=O)c3ccccc3)[C@]3(O)C[C@H](OC(=O)[C@H](O)[C@@H](NC(=O)c4ccccc4)c4ccccc4)C(C)=C1C3(C)C)[C@]1(OC(C)=O)CO[C@@H]1C[C@@H]2O |  | human patients on multiple protease inhibitors, plasma | iv, 100 mg/m^2 over 3 h, cycle 1 | 5 ± 2.4 µM·h
O=C(CCCCCCC(=O)Nc1ccccc1)NO | LC-MS/MS | human, serum | oral, 200 mg, day 1, first dose mean | 779 ng·h/mL
Cc1ccc(C(=O)NC2CC2)cc1-n1ncc(C(=O)c2cccc(C#N)c2)c1N |  | healthy human | oral, 14 mg single, geometric mean | 6250 ng·h/mL
CO[C@H]1C[C@@H]2CC[C@@H](C)[C@@](O)(O2)C(=O)C(=O)N2CCCC[C@H]2C(=O)O[C@H]([C@H](C)C[C@@H]2CC[C@@H](OCCO)[C@H](OC)C2)CC(=O)[C@H](C)/C=C(\C)[C@@H](O)[C@@H](OC)C(=O)[C@H](C)C[C@H](C)/C=C/C=C/C=C/1C |  | healthy adult human, blood | 0.75 mg single dose, geometric mean, with: ritonavir-containing 3D regimen | 1130 ng·h/mL
COc1ccc(C[C@@H](C)[C@@H](C)Cc2ccc(OC)c(OC)c2)cc1OC |  | human | oral, 1200 mg | 100 ng·h/mL
CO[C@H]1C[C@@H]2CC[C@@H](C)[C@@](O)(O2)C(=O)C(=O)N2CCCC[C@H]2C(=O)O[C@H]([C@H](C)C[C@@H]2CC[C@@H](O)[C@H](OC)C2)CC(=O)[C@H](C)/C=C(\C)[C@@H](O)[C@@H](OC)C(=O)[C@H](C)C[C@H](C)/C=C/C=C/C=C/1C |  | human, whole blood | oral, 15 mg, with: grapefruit juice | 4360 ng·h/mL
Cc1nc2cccc(N)c2c(=O)n1C1CCC(=O)NC1=O (centres unmarked) |  | healthy adult human, plasma | oral, 3 mg, geometric mean, with: rifampin 600 mg once daily | 460 ng·h/mL
CCc1cc(/C(C)=N/OCc2ccc(C3CCCCC3)c(C(F)(F)F)c2)ccc1CN1CC(C(=O)O)C1 |  | healthy human, plasma | oral, 4 mg, geometric mean, with: fluconazole steady state | 2190 ng·h/mL
CCOc1cc([C@@H](CS(C)(=O)=O)N2C(=O)c3cccc(NC(C)=O)c3C2=O)ccc1OC |  | healthy human, both sexes, plasma | oral, 30 mg single dose, with: rifampicin multiple oral doses | 869 ng·h/mL
CC[C@H](C)[C@@H]1NC(=O)[C@H](CCCNC(=N)N)NC(=O)[C@H](CC(=O)O)NC(=O)[C@H](CC(C)C)NC(=O)[C@H](CCCCN)NC(=O)[C@H](CC(C)C)NC(=O)CNC(=O)[C@H](Cc2ccccc2)NC(=O)[C@@H](NC(=O)CNC(=O)[C@H](CCCCN)NC(=O)[C@H](CO)NC(=O)[C@H](CC(C)C)NC(=O)CNC(=O)[C@H](CCCCN)NC(=O)[C@H](CCCCN)NC(=O)[C@H](CC(N)=O)NC(=O)[C@H](C)NC(=O)CNC(=O)[C@H](CCCCN)NC(=O)[C@H](Cc2ccc(O)cc2)NC(=O)[C@H](CCCCN)NC(=O)[C@H](CCCNC(=N)N)NC(=O)[C@H](C)NC(=O)[C@H](CC(N)=O)NC(=O)[C@@H]2CCCN2C(=O)[C@H](Cc2c[nH]cn2)NC(=O)[C@H](CCC(=O)O)NC(=O)[C@H](CCC(N)=O)NC(=O)CNC(=O)[C@@H]2CCCN2)CSSC[C@@H](C(=O)O)NC(=O)CNC(=O)[C@H](CC(C)C)NC(=O)CNC(=O)[C@H](CO)NC(=O)[C@H](CCSC)NC(=O)[C@H](CO)NC(=O)CNC1=O | ECLA | human, plasma | subcutaneous, 15 µg/kg once daily, week 52 | 4.6 ng·h/mL
COCCCCn1c(C(=O)N(CC(C)C)[C@@H]2CNC[C@H](C(=O)N3CCOCC3)C2)nc2ccccc21 |  | human, non-elderly, plasma | oral, 160 mg, multiple doses, day 1, mean | 8600 ng·h/mL
C[C@@H](Oc1cc(-c2cnn(C3CCNCC3)c2)cnc1N)c1c(Cl)ccc(F)c1Cl |  | healthy human, plasma | oral, 250 mg single fasted, geometric mean | 2440 ng·h/mL
CC(=O)C[C@H](c1ccccc1)c1c(O)c2ccccc2oc1=O |  | human | 200 mg | 69600 ± 18400 ng·h/mL
CC(C)[C@](O)(c1ccc2cc(OC(F)F)c(OC(F)F)cc2c1)c1c[nH]nn1 |  | human patients, male, plasma | oral, 750 mg, cycle 1 day 1, first dose | 44200 ± 2150 ng·h/mL
Cc1ccc(NC(=O)c2ccc(CN3CCNCC3)cc2)cc1Nc1nccc(-c2cccnc2)n1 |  | human patients, plasma | oral, 400 mg of imatinib, first dose, day 1 of cycle 1 | 6700 ng·h/mL
CNC(=O)c1ccccc1Sc1ccc2c(/C=C/c3ccccn3)n[nH]c2c1 |  | human, normal hepatic function (Child-Pugh), plasma | single dose, geometric mean, total drug | 156 ng·h/mL
CCOc1ccc(Cc2cc([C@]34OC[C@](CO)(O3)[C@@H](O)[C@H](O)[C@H]4O)ccc2Cl)cc1 |  | human, plasma | oral, 15 mg, with: sitagliptin 100 mg | 1480 ng·h/mL
O=C(/C=C/c1cccc(S(=O)(=O)Nc2ccccc2)c1)NO[C@@H]1O[C@H](C(=O)O)[C@@H](O)[C@H](O)[C@H]1O |  | human moderate liver dysfunction, plasma | intravenous, 400 mg/m^2, 30 min infusion, cycle 1 day -7, with: belinostat 400 mg/m^2 iv | 307000 ng·h/mL
